# Measurements gathered from unrelated publications.
# A part holds a random share of what one study measured. Substitutions count along the parent as printed.

# Study 1
# Target: RNA binding protein fox-1 homolog 2, RRM domain, GST-SBP tag (RBFOX2, Homo sapiens, UniProt O43251-10, residues 100-194)
# Method: RNA Bind-n-Seq
# Molecule type: RNA
# Sample: in vitro
# Tested at: 365 nM
# Setting: natural RNA segment, single round, ends assumed
# Reference: no-protein control
# Direction: higher = stronger binding
# Shared flanks, not repeated: GGGAGUUCUACAGUCCGACGAUC … UGGAAUUCUCGGGUGCCAA
# Residues (chain): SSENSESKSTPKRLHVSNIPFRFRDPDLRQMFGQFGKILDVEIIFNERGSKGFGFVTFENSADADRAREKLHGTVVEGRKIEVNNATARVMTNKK
Oligonucleotide,RBNS enrichment (R)
CCAUGGGCUGGCAUGGGGCUCCCACAGGAUCAGAGGCUGGGGCCAACUGGAACCAUUGGCAGCUGCACGCUCAUUACUACCCUCCGCUCCUGCGCUCUGCCACUGUCCGG,5.91
GAUUGACUUGGUGCAAUAAAGUUCCUUUCUAACCAUUUCUGGUUUAGAAAACAUUCAGCCAUCCUAGAAACUAGCAAUAUUUAUUUUUGCCUCUUUCGUUUUACCUUCAU,0.308
UAUUUAAGGUGAAAGCAUUUGACCCAGGGUGUCUUCAUCUUCAAUUUGGGUUUAAUGUUAUAGAAAUAAAUGAUGAUAAACUCUAACUAAUAAAGGAAAGAGAAUAUUUG,0.33
AGGGAUGCUGAUUGAUAUUUCACAUUGUAUGAAAUACCAUGUUUGAAACUCAUAGCAAUAAUGCUAUGCUGUUGUGAUCCCUCUCAAGUUCUGCAUUUAAAAUAUAUUUU,0.69
UCCUCAGCCUUCUGGCGGGAGCCCUGAGGCUGCGGACAAAGCCCUUUCAUCUGAGGACUUUCAUCUGUGCAUAUCACGGCCCCCCAGGGCAGUUCCUGCUGGACCAGACU,0.182
UAUUUUUAGUAGAAACGGGAUUUCACCUUGUUAGGCUGGUCUCGAACUCCUGACCUCAGGUGAUCCACCCACCUUGGCCUCCCAAAGUGCUGGGAUUACAGGUGUGAGCC,0.228
UAGGGUCUCCCCUUUACCCUCUCUCCUUAUUUAUUCUUGCCCCUCUGCUAUUAUUCCUUGCUGUUUAUAGUGCUUUUGUGUAGUAAAUGCUCACUCCCCAAGCUUUAUGG,1.4
UGGCAUGCCUGUGUAUGUGUGUAACAGGAUUCUGAAUGUUAGGUUGUAAUGCUAUUCCUGUAUGGGAGAAAAAAUAAUAUAAACAAAUAAAAAUCUAUUUAAAGCACAUU,32.8
CACAAUGAAAAGUUUAUUUUAAACAUUGUUUAAUUAAAAUACCAUACAGUUCUCUUUUAAACAUCAAACCAUAAAAAGUGUAUUUUGUAAUUUUACUCUGACCUGCCGCA,1.12
CUUAUGCUAACCACUAUUUUAAAAUGAAAGACAAAGCUCUUUCAGAAGUUUCUCUUGGCUGUUUUAAAAGACAAUUACUGAACAAUAAAAUCCUCUUCCCUGCCCACCCU,0.596
AGGUGCUGAGCCCCCGCCUUGCACUGCGCCUGCCCCACGGUGUCCCCGCCGGGAAGCAGCCCCGGCUCCUGAAUCACCCUCGCUCCGUCAGGCGGGACUCGUGUCCCAGA,1.5
GAAAUGUCUCUAAAACGUUGAUCAAUCUGAAGCUUACAGAUUGGAAACUGGGCCAGGUCAGCCCUGGCGGUGGAGUCCAGAGACAGAGAGAAGGCUGCAGGGAGGGGAGA,0.799

# Study 2
# Target: ABI1, truncated, D143A, DHFR fusion (Arabidopsis thaliana)
# Method: DHFR PCA, deep sequencing
# Sample: yeast
# Setting: methotrexate growth selection, single substitutions
# With: (+)-ABA 58 µM
# Reference: wild-type fitted maximum
# Direction: higher = stronger binding
# Parent: PYL1, truncated, DHFR fusion (Arabidopsis thaliana); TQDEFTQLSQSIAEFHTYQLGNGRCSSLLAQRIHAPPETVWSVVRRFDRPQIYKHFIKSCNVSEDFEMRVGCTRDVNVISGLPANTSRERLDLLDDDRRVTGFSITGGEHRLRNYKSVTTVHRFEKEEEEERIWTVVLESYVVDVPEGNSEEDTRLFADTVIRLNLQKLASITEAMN
Change,relative binding score [%]
A158T,87.5
Q2H,89.4
Y53C,13.4
A170T,69.9
V142S,79.8
K54A,7.14
R74G,0.653
R113W,58.1
L91E,1.22
Q10R,84.8
L94S,36.4
L8V,73
P50L,-5.93
F124K,59.1
G108V,-6.04
C25M,61.4
D48K,0.391
A30S,96.7
T119K,4.92
D3P,84.2
F103L,10.2
E127I,89.7

# Study 3
# Target: Fragile X messenger ribonucleoprotein 1, C-terminal low-complexity region (Fmr1, Mus musculus, UniProt P35922)
# Method: RNA Bind-n-Seq
# Molecule type: RNA
# Sample: in vitro
# Tested at: 200 nM
# Setting: whole 134-nt RNA, ends assumed
# With: 150 mM KCl
# Reference: input library
# Direction: higher = stronger binding
# Shared flanks, not repeated: GGGAGUUCUACAGUCCGACGAUC … UGGAAUUCUCGGGUGUCAAGG
Oligonucleotide,log2 enrichment
ACCAUGCAGGUGGGCAUCUUUGGGAAGUGCGGCAAGGGGGGGAUAGGGAGGGGGGUAACACUUUGGGAACAGGUGGUCCCAGGUCGUUUC,1.03
AAGUCCUGUGCUACACAUCGUAUGUACCGAAUCGGUUUUUGGUUUUUGGUUUUUGGGAAAGUAUUAUGUUACGCCGUUCGGAUCUGCACU,-0.89
UCAAGUCCUGUGCUACACAUCGUAUGUACCGAAUCGGUUUGGGUUUGGUUUGGGGAAAGUAUUAUGUUACGCCGUUCGGAUCUGCACUUC,-0.313
UCAAGUCCUGUGCUACACAUCGUAUGUACCGAAUCGGGGCCGGCCGGGGCCGGGAAAGUAUUAUGUUACGCCGUUCGGAUCUGCACUUCC,-0.248
CAAGUCCUGUGCUACACAUCGUAUGUACCGAAUCGGAAAGGAAAGGUUUUUUUGGAAAGUAUUAUGUUACGCCGUUCGGAUCUGCACUUC,-0.921
GUCCUGUGCUACACAUCGUAUGUACCGAAUCGGGGAAAAAGGGAAAAAGGGGAAAAAGGAAAGUAUUAUGUUACGCCGUUCGGAUCUGCA,-0.22
GUCCUGUGCUACACAUCGUAUGUACCGAAUCGGGGAAAGGGGAAAAAAAGGGGUGGGGAAAGUAUUAUGUUACGCCGUUCGGAUCUGCAC,0.474
UGGGAGGUGCAUUUUGUUUAUUUUUUUAGCUCAUUUCCAGGGGUGGGAAUUUUUUUUUAAUAUGUGUCAUGAAUAAAGUUGUUUUUGAAA,0.291
CACAGACAACACGCACCCACACAGACACAGAGGGAAGGGGUUGGGAUGGGGACAGGGUGCACAGCAGGGCGGGGGAGGACCCCAGCCCCU,1.23
GCAGGAAGUAAAAACAAAUGGAAAUGCUUCGGAUAGUGGCAAGGGUGGGGGUUGCUAAGGAAAGGGUGGGAUGGGAGUGGGUAAAGAGUU,0.0805
UCCUGUGCUACACAUCGUAUGUACCGAAUCGGGAAAAAAAGGGUUUUUGGGAAAAAGGGAAAGUAUUAUGUUACGCCGUUCGGAUCUGCA,-0.306
UGGGAGGUGGAUUUUGUUUAUUUUUUUAGCUCAUUUCCAGGGGUGGGAAUUUUUUUUUAAUAUGUGACAUGAAUAAAGUUGUUUUUGAAA,-0.00661
AAGUCCUGUGCUACACAUCGUAUGUACCGAAUCGGUUUUUUUGGAAAGGAAAAAGGAAAGUAUUAUGUUACGCCGUUCGGAUCUGCACUU,-1.03
ACCAUGCAGGUGGGCAUCUUUGGGAAGUGGGGCAAGGGAGGGAUAGGGAGGGGGGUAACACUUUGGGAACAGGUGGUCCCAGGUCGUUUC,0.688

# Study 4
# Target: CCNE2, cyclin fold, Cln2 fusion (human)
# Method: yeast growth competition, sequencing
# Sample: yeast
# Setting: strong parent motif
# Reference: not given
# Direction: higher = stronger binding
# Parent: CDC25A docking peptide (human); PPHRRRLLFACSP; partner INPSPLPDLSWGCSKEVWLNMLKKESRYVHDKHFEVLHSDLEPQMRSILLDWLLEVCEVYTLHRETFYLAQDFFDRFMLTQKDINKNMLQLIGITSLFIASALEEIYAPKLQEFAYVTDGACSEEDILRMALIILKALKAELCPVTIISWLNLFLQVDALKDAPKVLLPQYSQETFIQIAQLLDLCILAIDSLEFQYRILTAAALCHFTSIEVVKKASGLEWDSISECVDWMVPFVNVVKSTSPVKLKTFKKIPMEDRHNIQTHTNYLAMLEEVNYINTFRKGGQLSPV
Change,normalised enrichment score
PPHRRRLLTACSP [F9T],0.819
PPHRRRLLFACSC [P13C],2.26
PPHRRRLLFACIP [S12I],1.84
PPHRRRLHFACSP [L8H],2.47
PPHRRRLLFARSP [C11R],0.811
PPHRRRLLFAYSP [C11Y],1.05
PPHRRQLLFACSP [R6Q],1.7
PPHRRRLLFATSP [C11T],2.09
PPHSRRLLFACSP [R4S],-0.0666
PPHRRRLLFNCSP [A10N],2.54
PRHRRRLLFACSP [P2R],2.17
PPHRRRLLFACSA [P13A],1.94
PPHRRRSLFACSP [L7S],0.445
PIHRRRLLFACSP [P2I],1.52
PYHRRRLLFACSP [P2Y],1.49
IPHRRRLLFACSP [P1I],1.71
PPHRRRLLFACSF [P13F],1.21
PPHRRRPLFACSP [L7P],0.179
PPHRPRLLFACSP [R5P],0.446
SPHRRRLLFACSP [P1S],2.68
PPHRRRLLFACSS [P13S],2.34
PPHRRRLLFACSV [P13V],1.86
PPHRRRLLFRCSP [A10R],1.7
PPHRRRLLFAISP [C11I],1.92
PPHRRRLLFGCSP [A10G],2.47

# Other studies, line by line
Molecule,target,assay,test system,setting,how to read,endpoint,value
"PhoQ, residues 284 288 289 292 302 303 SACGEM","PhoP, residues 12 14 15 18 19 QYCSL (Escherichia coli, UniProt P23836)","Sort-seq, measured: YFP reporter",E. coli,"PhoQ-PhoP variant library, with: 10 µM Mg2+","reference: high Mg2+ state, higher = stronger signaling",fold induction,9.21

# Repeated from above (study 1):
Oligonucleotide,RBNS enrichment (R)
UCCUCAGCCUUCUGGCGGGAGCCCUGAGGCUGCGGACAAAGCCCUUUCAUCUGAGGACUUUCAUCUGUGCAUAUCACGGCCCCCCAGGGCAGUUCCUGCUGGACCAGACU,0.182
UAUUUUUAGUAGAAACGGGAUUUCACCUUGUUAGGCUGGUCUCGAACUCCUGACCUCAGGUGAUCCACCCACCUUGGCCUCCCAAAGUGCUGGGAUUACAGGUGUGAGCC,0.228
UAGGGUCUCCCCUUUACCCUCUCUCCUUAUUUAUUCUUGCCCCUCUGCUAUUAUUCCUUGCUGUUUAUAGUGCUUUUGUGUAGUAAAUGCUCACUCCCCAAGCUUUAUGG,1.4
UGGCAUGCCUGUGUAUGUGUGUAACAGGAUUCUGAAUGUUAGGUUGUAAUGCUAUUCCUGUAUGGGAGAAAAAAUAAUAUAAACAAAUAAAAAUCUAUUUAAAGCACAUU,32.8
CACAAUGAAAAGUUUAUUUUAAACAUUGUUUAAUUAAAAUACCAUACAGUUCUCUUUUAAACAUCAAACCAUAAAAAGUGUAUUUUGUAAUUUUACUCUGACCUGCCGCA,1.12
CUUAUGCUAACCACUAUUUUAAAAUGAAAGACAAAGCUCUUUCAGAAGUUUCUCUUGGCUGUUUUAAAAGACAAUUACUGAACAAUAAAAUCCUCUUCCCUGCCCACCCU,0.596
AGGUGCUGAGCCCCCGCCUUGCACUGCGCCUGCCCCACGGUGUCCCCGCCGGGAAGCAGCCCCGGCUCCUGAAUCACCCUCGCUCCGUCAGGCGGGACUCGUGUCCCAGA,1.5
